Assay results from different studies.
Values joined by “and” are separate records of one study, mostly repeats; a detail may differ.
Observed: cell growth or viability

Structure (SMILES) | cell line | assay | setting | viability
N#CC(C(=O)Nc1cccc(C(F)(F)F)c1)=C1Sc2nc3ccc(S(=O)(=O)N4CCCC4)cc3nc2S1 | WI-38 | MTT | 100 µM, 24 h | 43%
Nc1ccn([C@@H]2O[C@H](CO)[C@@H](O)C2(F)F)c(=O)n1 | MDA-MB-231 | MTT | 1.25 µg/mL, 24 h | 81.7%
O=C1CCCCC1=C1Sc2nc3ccc(S(=O)(=O)N4CCCC4)cc3nc2S1 | WI-38 | MTT | 1.56 µM, 24 h | 100%
Cn1cnc2c1c(=O)n(CC(=O)Nc1c(Cl)cccc1Cl)c(=O)n2C | NCI-H1975 | MTT | 0.4 µg | 82.7%
CNC(=O)c1cc(Oc2ccc(NC(=O)Nc3ccc(Cl)c(C(F)(F)F)c3)cc2)ccn1 | WI-38 | MTT | 50 µM, 24 h | 17.8%
CC(=O)c1nn(-c2ccc(C)cc2)/c(=N/N=C(\C)c2ccc(NC(=O)c3ccccc3)cc2)s1 | WI-38 | MTS | 5 µM, 24 h | 4.93%
COc1cc(N2CCC(N3CCN(C)CC3)CC2)ccc1Nc1ncc(Cl)c(Nc2ccccc2P(C)(C)=O)n1 | Ba/F3 EML4-ALK | CCK-8 | 1 µM, 24 h | 5% and 4%
COc1cccc2c1C(=O)c1c(O)c3c(c(O)c1C2=O)C[C@@](O)(C(=O)CO)C[C@@H]3O[C@H]1C[C@H](N)[C@H](O)[C@H](C)O1 | WI-38 | MTT | 50 µM, 24 h | 14.5%
COc1cccc(NC(=O)Nc2ccc(Oc3nc4ccccc4n4cnnc34)cc2)c1 | WI-38 | MTT | 1.56 µM, 24 h | 100%
COc1cccc2c1C(=O)c1c(O)c3c(c(O)c1C2=O)C[C@@](O)(C(=O)CO)C[C@@H]3O[C@H]1C[C@H](N)[C@H](O)[C@H](C)O1 | K562 | MTT | 25 µg/mL | 52.3%

A few entries again:
Structure (SMILES) | cell line | assay | setting | viability
COc1cccc(NC(=O)Nc2ccc(Oc3nc4ccccc4n4cnnc34)cc2)c1 | WI-38 | MTT | 1.56 µM, 24 h | 100%
O=C1CCCCC1=C1Sc2nc3ccc(S(=O)(=O)N4CCCC4)cc3nc2S1 | WI-38 | MTT | 1.56 µM, 24 h | 100%
